Measurements collected from several papers.
A part holds a random share of what one study measured.

Study 1 — technique: protein binding microarray; molecule type: double-stranded DNA, one strand shown; medium: in vitro; tested at: not given; relative to: not given; direction: higher = stronger binding
Target: Histone acetyltransferase KAT6A, both winged helices, GST fusion (KAT6A, Homo sapiens, UniProt Q92794, residues 1-181)
Notes: 8-mer, flanks averaged, mean of 2 arrays, mostly near background
Construct (chain): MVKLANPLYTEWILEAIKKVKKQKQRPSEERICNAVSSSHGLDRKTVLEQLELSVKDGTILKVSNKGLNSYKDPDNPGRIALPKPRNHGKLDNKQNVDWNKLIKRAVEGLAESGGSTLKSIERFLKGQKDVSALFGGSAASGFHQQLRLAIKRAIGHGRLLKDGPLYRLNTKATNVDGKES
Sequence	E-score
ACCCAGAG	-0.187
AATGGTGT	-0.16
CCATGTGC	0.0713
AACTCCCC	-0.06
GTCAGAAC	0.048
GGGACCCA	0.0242
GAAATTCA	-0.00924
CTAATCAA	-0.115
CTTGGCTA	-0.235
ACCCGATC	0.103
GGAGCAAA	-0.158
AAATTGCA	-0.136
CTAGCCCC	-0.168
CTTAAAAG	-0.188
AAGCAATG	-0.126
ATACAAAG	0.0113
CGTAGGTC	-0.0162
ATGTAGCG	0.154
CTGCCGCA	0.146
CGTCTGAA	-0.026
AGATCATC	-0.078

Study 2 — technique: RNA Bind-n-Seq; molecule type: RNA; medium: in vitro; tested at: 20 nM; notes: 6-mer, flanks averaged, single round; added: 150 mM LiCl; relative to: input library; direction: higher = stronger binding
Target: TAR DNA-binding protein 43, full length, His tag (TARDBP, Homo sapiens, UniProt Q13148, residues 1-414)
Sequence	6-mer enrichment (R)
AAGAAC	0.9
CCUCGG	0.865
ACCUUA	0.889
UACUUU	1.01
ACCCCC	1.26
CUAUCG	0.838
UUGCGC	1.03
AUACCU	0.867
CUAGGC	0.871
GGUCCU	0.938
CUGUAG	1.12
AAACCG	0.79
UCUCCG	0.878
GUUCUU	1.02
UAAAGU	0.943
AAAUCA	0.816
GCUAUG	0.981
GUGGAG	1.36
GACACG	0.903
CUGAGA	0.873
GUCUUC	0.867
AGCGGG	1.12
AUCCGU	0.839
AAGGUU	0.925
GUGGCA	1.09

Study 3 — technique: RNA Bind-n-Seq; molecule type: RNA; medium: in vitro; tested at: 365 nM; relative to: no-protein control; direction: higher = stronger binding
Target: RNA binding protein fox-1 homolog 2, RRM domain, GST-SBP tag (RBFOX2, Homo sapiens, UniProt O43251-10, residues 100-194)
Notes: natural RNA segment, single round, ends assumed
Target sequence (chain): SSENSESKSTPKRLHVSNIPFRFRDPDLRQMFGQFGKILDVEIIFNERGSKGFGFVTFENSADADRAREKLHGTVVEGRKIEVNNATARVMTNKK
Sequence	RBNS enrichment (R)
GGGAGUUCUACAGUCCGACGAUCUUGUCAGUGGAAUGCAGUUUUUUUACUAUUCCAUCAUGAGGAACAACAUAGAUUCCAUGAUCUUUUUAAUGACAGUACAGACUGAGAUUUGAAGGAAACAUGCACAAAUCUGGAAUUCUCGGGUGCCAA	0.371
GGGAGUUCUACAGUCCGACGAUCCAGCUUUGAGCCCCAGUAUGCACUAUGCUUAAGCUCUGACGACUCUUGCGUGCAGCGAGGAGGUCCUCCCUGACAUGCUCAGCAUCCCGCAGUGAUUCCUCUCAUAGCUCUGGAAUUCUCGGGUGCCAA	0.285
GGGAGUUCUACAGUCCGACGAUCCUCUAAUCCUCAAACUAAGCCACCGUUUGGACUGCUAGUGUCACAGUUCGGGUGUUCCAUUGCACCCCUGUGCAGAUCUUUCCAGACUUGGCAACUUUACUUGGCUGAAUUGGAAUUCUCGGGUGCCAA	0.229
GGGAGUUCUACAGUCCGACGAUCUUUGGGGGCUCAGCCCUGCCCGGUUAAGUUGACAUAUCAAGUUAACCCACUGAAGGGCUUCAGGUUUCAUUUUUUAAUCUUCUCAAAAACCAGAAAAAAAAAAUCAGAAAUGGAAUUCUCGGGUGCCAA	0.401
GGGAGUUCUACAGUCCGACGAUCCCAUUGAACUUAAUCUGUGUGGCUUCCAGCCCUCCCUUUACCAAAAGGGUCAAUGGACCUUUCUUUGCACUGUGUGACUUAAUCAACUAUAAAAGCUUACAAUUAGUCUUUGGAAUUCUCGGGUGCCAA	0.42
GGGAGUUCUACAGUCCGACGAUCGUUCGAUGUUUUCAAGUGAGAAAGAGGAAUGUAGUAUGCUUUGGCAUAGUUUGGGAGUGGAGAAUACAGACAUUAUCAGCAGUGACAAAUCACAUAGCUUCAAAAACUCCUGGAAUUCUCGGGUGCCAA	0.398
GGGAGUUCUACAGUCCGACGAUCUGAUUUCUCUUCUCUGGAGGCUUUGUGUAAGAAAAUCAUUAAAGAAAAACAAGCUUUUGAAAGACUGGAAGUUAAGAAAGAAACUUUACUGGCAAUGUUUAAGGACAACAUGGAAUUCUCGGGUGCCAA	0.76
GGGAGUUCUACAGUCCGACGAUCUUCAAACAAAAUUGGCGUAACUGUUUCAUCUUUAAGUAGCAGUUUGCUGCCAUUUGUAUUCAGCUGAAGAAGUCACUAUUGUGUAUAUACUCAAGGCUUCUUAUUUUUCUUGGAAUUCUCGGGUGCCAA	0.449
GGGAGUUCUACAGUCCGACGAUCUAGAGUGCAGAGGGGCUCUUUUAUCCAGACCCCUCUUUGUAUCCUGGUGCCCUUGUUGACUGUCUGGGAAGAUGAAUAUACCAGGGUUUCCAAAUCCAGCCCUUUUCGUUUGGAAUUCUCGGGUGCCAA	0.275
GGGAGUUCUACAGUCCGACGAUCAGCCACUGUCUAGACCUCCUCCAUCAGAUGCCUAGGCCUCCUCCAUCAGAUACCUGGGCCUCCUCCAUCAGAUGUCUGGGCCUCCUCCAUCAGAUGUCUGGGCCUCCUCCUGGAAUUCUCGGGUGCCAA	0.377
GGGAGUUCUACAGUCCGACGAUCUGAGAGAAAUUUUAAAAAGUCUCUAUUUAAAUUCUUUUUUUAAAUUUCUCUUCAGUUGGUGUGUUUCCGGGAUGUCUUAUUUUUAGAUGGUUACACUGUUAGAACACUAUUGGAAUUCUCGGGUGCCAA	0.454
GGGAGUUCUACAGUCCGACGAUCCAUUCAUUAAUGUUAAGGCUAAUACAUUUAAGAUCUUGUUUAAACAAUGUUUCUUCUGCAACUGGCUACUCCUCUUAUAUUAAUGCAUACACUUUUGUAAAGAAGUAUAUUGGAAUUCUCGGGUGCCAA	0.364

Study 4 — technique: protein-binding microarray; molecule type: double-stranded DNA, one strand shown; medium: in vitro; tested at: 0.8 µM; notes: whole 60-bp probe, no competitor; direction: higher = stronger binding
Target: Centromere-binding protein 1, full length, N-terminal tag (CBF1, Saccharomyces cerevisiae, UniProt P17106, residues 1-351)
Chain of UniProt P17106 (whole entry, looked up): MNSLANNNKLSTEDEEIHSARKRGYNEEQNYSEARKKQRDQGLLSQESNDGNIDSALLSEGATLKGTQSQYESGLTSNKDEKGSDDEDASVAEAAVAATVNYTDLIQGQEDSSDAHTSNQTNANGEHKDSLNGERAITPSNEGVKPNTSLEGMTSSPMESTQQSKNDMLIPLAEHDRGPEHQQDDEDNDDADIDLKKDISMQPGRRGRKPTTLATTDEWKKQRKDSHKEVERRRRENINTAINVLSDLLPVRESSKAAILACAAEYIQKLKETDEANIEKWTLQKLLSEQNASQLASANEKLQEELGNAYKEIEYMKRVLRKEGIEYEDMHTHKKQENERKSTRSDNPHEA
Sequence	fluorescence intensity [a.u.]
CTAGTATCTAGAGCGCTGGTGGTGGAGTTGCATTTCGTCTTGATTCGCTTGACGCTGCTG	490
CTAAAACATATAGTCATGGTGGTGTTGACATGTTTCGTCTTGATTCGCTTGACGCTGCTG	523
TGTACGAAGCTATGTGGTGGTATTATAGTAGTTAGGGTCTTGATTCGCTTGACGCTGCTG	517
CTAGCGGCTGGTTGACTAGTCACAAGAAACAGATTCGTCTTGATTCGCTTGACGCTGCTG	543
GAAGAGACGCCCATTAATGTGACTTGAATATACTAGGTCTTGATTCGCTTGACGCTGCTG	605
GAACAGACGTAAAACCGCATGACACCAAGCCTATAGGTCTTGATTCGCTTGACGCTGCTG	577
CTATCTGCAAGAGCACGTGCGACGTGTCTGGTGTTCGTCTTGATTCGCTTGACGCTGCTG	10300
TGTACGAAGCTATAGCAGGTGTTTATAGTAGTTAGGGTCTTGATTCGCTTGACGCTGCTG	548
GAATGACGGTACGTTCTGATGCTGCCTTGCTTGTAGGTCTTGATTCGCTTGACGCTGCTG	477
CTAACTATGGGTGCAGGTGAGGCGGTTTTTTAATTCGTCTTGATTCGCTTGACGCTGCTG	531
CTACAGCTTTAGACTCACATGGGTTCTCATGAGTTCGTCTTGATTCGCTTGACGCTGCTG	634
GAATGTGAGGATTATTGTCATGTGAAGGCGTGATAGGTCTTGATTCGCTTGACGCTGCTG	1290
CTAGGAAGGTATCATCACGTAAACTAAAACGCATTCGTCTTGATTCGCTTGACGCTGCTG	572
CTAACATCCCACATCCGCATGATAGGAGATGTGTTCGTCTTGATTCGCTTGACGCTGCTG	553
GAACCTGCTATGCTCCACATGTTAAAGGGAAAATAGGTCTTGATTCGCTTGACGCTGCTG	591
GAATTTAAATGTCATCACATGATGTTTCTTATATAGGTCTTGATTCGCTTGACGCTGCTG	3470
CTATTTAAAAAGCGTTGCGTGATGTTTGGGTGCTTCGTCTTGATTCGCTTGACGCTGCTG	563
GAAGATGCTGATGCTGATGTTGTGCTATATGCTTAGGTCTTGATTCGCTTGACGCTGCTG	539
GAAAGCTTGAGGAGAGGCATGATGATGGTTCTCTAGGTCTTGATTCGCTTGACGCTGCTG	510
GAAGTTGTCGTCAATCACATGTAAATATCATTATAGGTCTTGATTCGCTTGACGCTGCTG	1340
CTATACTTAATGCTTATCGTGATCGCAATACAATTCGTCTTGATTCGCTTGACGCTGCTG	650
GAACTTTTATTAAGTCTGATGACTATTTCTCATTAGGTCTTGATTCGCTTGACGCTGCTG	627
GAATGGTTGTGATACAGCCACATGAACAGATTCTAGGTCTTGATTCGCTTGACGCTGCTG	632

Study 5 — technique: protein-binding microarray; molecule type: double-stranded DNA, one strand shown; medium: in vitro; tested at: not given; direction: higher = stronger binding
Target: Protein C-ets-1 (ETS1, Homo sapiens, UniProt P14921, residues 1-441, Y397A, full length assumed)
Notes: k-mer, scored over probes, only values ≥0.25
Residues (chain): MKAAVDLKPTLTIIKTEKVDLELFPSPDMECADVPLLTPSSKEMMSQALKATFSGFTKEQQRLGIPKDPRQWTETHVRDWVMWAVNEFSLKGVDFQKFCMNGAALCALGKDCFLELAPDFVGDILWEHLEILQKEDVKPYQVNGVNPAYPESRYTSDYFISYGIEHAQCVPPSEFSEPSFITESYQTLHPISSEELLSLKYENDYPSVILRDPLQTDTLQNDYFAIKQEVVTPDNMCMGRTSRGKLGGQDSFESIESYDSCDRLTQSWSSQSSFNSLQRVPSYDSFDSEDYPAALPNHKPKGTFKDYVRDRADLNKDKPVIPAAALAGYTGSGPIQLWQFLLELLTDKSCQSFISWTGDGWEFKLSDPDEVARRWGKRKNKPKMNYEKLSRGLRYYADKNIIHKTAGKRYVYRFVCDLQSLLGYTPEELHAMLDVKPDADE
Sequence	E-score
TGCGCACA	0.321
CGCCCCTA	0.268
AACGGATG	0.301
GCCTCCCC	0.256
ATGCGCAT	0.353
GAATGACA	0.26
ATAATTGC	0.27
AGGCGGGG	0.258
CGTGTGTA	0.286
CCGACACA	0.338
CGTTTGCA	0.273
CACAACAC	0.29
GACACAAA	0.343
ATGACATA	0.262
GGACAAAA	0.28
ACGGATGC	0.3
ATCGCGCA	0.276

Mixed results — organism: Saccharomyces cerevisiae; observed: binding; technique: competitive growth deep sequencing; molecule type: peptide; tested at: concentration not given; direction: direction not given
Sequence	system	setting	growth enrichment score
RKLDLEGIGR	cyclin E1-Cln2 fusion strain	tiling library, Cln2 subtracted	0.143
GSALKKLFTSTGL	cyclin D3-Cln2 fusion strain	peptide library 1	-0.0161
HPESPPRKRLKSKGSD	cyclin D2-Cln2 fusion strain	peptide tiling library	4.24
PKNAKRNLSSEFAN	cyclin E1-Cln2 fusion strain	tiling library, Cln2 subtracted	1.57

A few entries again (study 5):
Sequence	E-score
TGCGCACA	0.321
CGCCCCTA	0.268
AACGGATG	0.301
GCCTCCCC	0.256
ATGCGCAT	0.353
GAATGACA	0.26
ATAATTGC	0.27
AGGCGGGG	0.258
CGTGTGTA	0.286
CCGACACA	0.338
